Measurements from different studies.
Protocols differ between the studies behind these lines. Numbers after ± are the reported error.

`N#C[C@@H]1CC(F)(F)CN1C(=O)CNC(=O)c1ccnc2c(NC(=O)[C@H](CCCCNC(=O)CCOCCOCCOCCOCCOCCOCCNC(=O)CN3CCN(CC(=O)[O-])CCN(CC(=O)[O-])CCN(CC(=O)[O-])CC3)NC(=O)CCCc3ccc(I)cc3)cccc12.[177Lu+3]` gave a tissue uptake of 0.6 ± 0.26 %ID/g (mouse, U-87 MG tumour xenograft, spleen; 48 h).
The tissue uptake of `[11CH3]N1CCC(NC(=O)c2cc(-c3c(O)cc(O)cc3Oc3ccc([N+](=O)[O-])cc3)on2)CC1` is reported as 14.8 ± 1.2 %ID (Wistar rat, female, healthy, kidneys; intravenous, 2 min).
For `O=C(NCC1OC2CCC=CCCC2O1)c1ccc([18F])nc1` (stereo not drawn), the tissue uptake was 0.9 ± 0.1 %ID/g (healthy female BALB/c nude mice, pancreas; intravenous, 7.4 MBq per mouse, 60 min).
`CCCC[C@H](NC(=O)CNC(=O)CNC(=O)[C@H](CCCCNC(=O)[C@H](CC(=O)O)NC(=O)C(C)c1ccc(CC(C)C)cc1)NC(=O)CN1CCN(CC(=O)O)CCN(CC(=O)O)CCN(CC(=O)O)CC1)C(=O)N[C@H]1CC(=O)NCCCC[C@@H](C(N)=O)NC(=O)[C@H](Cc2c[nH]c3ccccc23)NC(=O)[C@H](CCCNC(=N)N)NC(=O)[C@@H](Cc2ccccc2)NC(=O)[C@H](Cc2c[nH]cn2)NC1=O` (stereo partly drawn) [lutetium-177 labelled] has a tissue uptake of 0.45 ± 0.17 %ID/g (C57 mouse, bone; intravenous, 2 h, together with: 10 µg NDP-MSH co-injection).
The tissue uptake of `Cc1cc(C)n(CCN(CCN)CCCCCCNC(=O)[C@@H](N)Cc2c[nH]cn2)n1.[99Tc+].[C-]#[O+].[C-]#[O+].[C-]#[O+]` is reported as 12.5 ± 2.28 %IA/g (BALB/c nude mice, MCF7 xenograft, kidney; intravenous, 4 h).
For `COc1cccc(OC)c1-c1cc(C(=O)NC2(C(=O)O)C3CC4CC(C3)CC2C4)nn1-c1ccc(C(=O)N(C)CCCN(C)C(=O)[C@H](CCCCNC(=O)[C@H](CC(C)C)NC(=O)C2OC2C(=O)O)NC(=O)CN2CCN(CC(=O)[O-])CCN(CC(=O)[O-])CCN(CC(=O)[O-])CC2)cc1C(C)C.[177Lu+3]` (mixture of isomers), the tissue uptake was 0.48 %ID/g (mouse, HT-29 xenograft, liver; 72 h post injection).
With `COc1ccc(Nc2nc(Nc3ccc(OCCOCC[18F])cc3)ncc2Br)cc1` the tissue uptake was 5.18 ± 0.02 %ID (ICR mice, S180 tumour, intestine; intravenous, 370 kBq, 120 min).
`[123I]c1ccc2nc(-c3ccc(-n4ccnn4)nc3)cn2c1` has a tissue uptake of 0.047 ± 0.013 %ID/g (Wistar rat, male, red marrow; intravenous, 4 MBq, 3 h).
With `CC(C)Cc1ccc(C(C)C(=O)N[C@@H](CCCCNC(=O)CCOCCOCCOCCOCCOCCOCCNC(=O)CN2CCN(CC(=O)[O-])CCN(CC(=O)[O-])CCN(CC(=O)[O-])CC2)C(=O)Nc2cccc3c(C(=O)NCC(=O)N4CC(F)(F)C[C@H]4C#N)ccnc23)cc1.[177Lu+3]` (stereo partly drawn) the tissue uptake was 0.42 ± 0.09 %ID/g (mouse, U-87 MG tumour xenograft, lung; 48 h).
For `O=C(O)CCCOc1ccc([18F])cc1-c1cc(-c2ccccc2C(F)(F)F)n(-c2ccccc2)n1`, the tissue uptake was 0.21 ± 0.06 %ID/g (mouse, blood; intravenous, dose not given, 60 min).
For `N#C[C@@H]1CC(F)(F)CN1C(=O)CNC(=O)c1ccnc2c(NC(=O)[C@@H](N)CCCCNC(=O)CCOCCOCCOCCOCCOCCOCCNC(=O)CN3CCN(CC(=O)[O-])CCN(CC(=O)[O-])CCN(CC(=O)[O-])CC3)cccc12.[177Lu+3]`, the tissue uptake was 0.89 ± 0.01 %ID/g (mouse, U-87 MG tumour xenograft, lung; 1 h).
`COc1cccc(OC)c1-c1cc(C(=O)NC2(C(=O)O)C3CC4CC(C3)CC2C4)nn1-c1ccc(C(=O)NCCNC(=O)[C@H](CCCCNC(=O)[C@H](CC(C)C)NC(=O)C2OC2C(=O)O)NC(=O)CN2CCN(CC(=O)[O-])CCN(CC(=O)[O-])CCN(CC(=O)[O-])CC2)cc1C(C)C.[177Lu+3]` (mixture of isomers) has a tissue uptake of 6.2 %ID/g (mouse, HT-29 xenograft, kidney; 24 h post injection).
With `CCCC[C@H](NC(=O)COCCOCCNC(=O)CN1CCN(CC(=O)O)CCN(CC(=O)O)CC1)C(=O)N[C@H]1CC(=O)NCCCC[C@@H](C(N)=O)NC(=O)[C@H](Cc2c[nH]c3ccccc23)NC(=O)[C@H](CCCNC(=N)N)NC(=O)[C@@H](Cc2ccccc2)NC(=O)[C@H](Cc2c[nH]cn2)NC1=O` [fluorine-18 labelled] the tissue uptake was 1.14 ± 0.23 %ID/g (C57 mice B16-F10 melanoma, skin; intravenous, 0.37 MBq, 1 h).
The tissue uptake of `COc1cccc(OC)c1-c1cc(C(=O)NC2(C(=O)O)C3CC4CC(C3)CC2C4)nn1-c1ccc(C(=O)N(C)CCOCCOCCN(C)C(=O)[C@H](CCCCNC(=O)[C@H](CC(C)C)NC(=O)C2OC2C(=O)O)NC(=O)CN2CCN(CC(=O)[O-])CCN(CC(=O)[O-])CCN(CC(=O)[O-])CC2)cc1C(C)C.[177Lu+3]` (mixture of isomers) is reported as 0.68 %ID/g (mouse HT-29 xenograft, small intestine; 4 h post injection, biodistribution).
The tissue uptake of `N#C[C@@H]1CC(F)(F)CN1C(=O)CNC(=O)c1ccnc2c(NC(=O)CCOCCOCCOCCOCCOCCOCCNC(=O)[C@H](CCCCNC(=O)CN3CCN(CC(=O)[O-])CCN(CC(=O)[O-])CCN(CC(=O)[O-])CC3)NC(=O)CCCc3ccc(I)cc3)cccc12.[177Lu+3]` is reported as 0.95 ± 0.23 %ID/g (mouse, U-87 MG tumour xenograft, salivary gland; 24 h).

Repeated from above:
With `CC(C)Cc1ccc(C(C)C(=O)N[C@@H](CCCCNC(=O)CCOCCOCCOCCOCCOCCOCCNC(=O)CN2CCN(CC(=O)[O-])CCN(CC(=O)[O-])CCN(CC(=O)[O-])CC2)C(=O)Nc2cccc3c(C(=O)NCC(=O)N4CC(F)(F)C[C@H]4C#N)ccnc23)cc1.[177Lu+3]` (stereo partly drawn) the tissue uptake was 0.42 ± 0.09 %ID/g (mouse, U-87 MG tumour xenograft, lung; 48 h).
For `COc1cccc(OC)c1-c1cc(C(=O)NC2(C(=O)O)C3CC4CC(C3)CC2C4)nn1-c1ccc(C(=O)N(C)CCCN(C)C(=O)[C@H](CCCCNC(=O)[C@H](CC(C)C)NC(=O)C2OC2C(=O)O)NC(=O)CN2CCN(CC(=O)[O-])CCN(CC(=O)[O-])CCN(CC(=O)[O-])CC2)cc1C(C)C.[177Lu+3]` (mixture of isomers), the tissue uptake was 0.48 %ID/g (mouse, HT-29 xenograft, liver; 72 h post injection).
